Measured values of several laboratories.
Each numbered part is a random draw from the data of one study; scales do not carry over between parts. Several values in a cell are separate wells, animals, samples, runs or records.
UniProt P16257, sequence (whole entry, looked up): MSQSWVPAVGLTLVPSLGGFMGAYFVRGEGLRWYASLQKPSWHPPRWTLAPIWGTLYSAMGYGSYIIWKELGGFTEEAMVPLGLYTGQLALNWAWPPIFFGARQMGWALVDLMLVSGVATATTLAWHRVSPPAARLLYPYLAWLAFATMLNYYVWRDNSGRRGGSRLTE

Study 1
SMILES: CC(C)n1cnc(-c2ccc(F)cc2)c1-c1ncc(C(=O)Nc2ccc(N3CCN(C)CC3)cc2)[nH]1
| test | test system | setting | patients with adverse event [%] |
| --- | --- | --- | --- |
| Phase 2a trial, refers to: blood lactate dehydrogenase increased | human, idiopathic pulmonary fibrosis | 60 mg once daily, grade 3 | 0 |
| Phase 2a trial, refers to: hypercholesterolaemia | human, idiopathic pulmonary fibrosis | 60 mg once daily, grade 2 | 0 |
| Phase 2a trial, refers to: blood creatine phosphokinase increased | human, idiopathic pulmonary fibrosis | all compound arms total, grade 3 | 0 |
| Phase 2a trial, refers to: blood glucose increased | human, idiopathic pulmonary fibrosis | 60 mg once daily, grade 3 | 0 |
| refers to: periorbital oedema, grade 2 | idiopathic pulmonary fibrosis patients | oral, 30 mg once daily | 0 |
| refers to: skin papilloma, maximum grade 5 | idiopathic pulmonary fibrosis patients | dose not given, all compound arms pooled | 0 |
| refers to: abnormal liver function test, grade 3 | idiopathic pulmonary fibrosis patients | oral, 60 mg once daily | 0 |
| Phase 2a trial, refers to: hypercholesterolaemia | human, idiopathic pulmonary fibrosis | 60 mg once daily, grade 1 | 0 |
| Phase 2a trial, refers to: blood fibrinogen increased | human, idiopathic pulmonary fibrosis | all compound arms total, grade 4 | 0 |
| Phase 2a trial, refers to: hepatobiliary disorders | human, idiopathic pulmonary fibrosis | 30 mg once daily, grade 5 | 0 |
| Phase 2a trial, refers to: blood lactate dehydrogenase increased | human, idiopathic pulmonary fibrosis | 30 mg once daily, grade 4 | 0 |
| Phase 2a trial, refers to: haemorrhoids | human, idiopathic pulmonary fibrosis | all compound arms, grade 4 | 0 |
| Phase 2a trial, refers to: blood creatinine increased | human, idiopathic pulmonary fibrosis | all compound arms total, grade 3 | 0 |
| Phase 2a trial, refers to: haemoptysis | human, idiopathic pulmonary fibrosis | all compound arms, grade 2 | 0 |
| Phase 2a trial, refers to: hypokalaemia | human, idiopathic pulmonary fibrosis | 60 mg once daily, grade 3 | 0 |
| refers to: abnormal liver function test, grade 4 | idiopathic pulmonary fibrosis patients | oral, 30 mg once daily | 0 |
| Phase 2a trial, refers to: respiratory, thoracic, mediastinal disorders | human, idiopathic pulmonary fibrosis | 30 mg once daily, grade 2 | 0 |
| Phase 2a trial, refers to: hepatobiliary disorders | human, idiopathic pulmonary fibrosis | 60 mg once daily, grade 4 | 0 |

Study 2 — effect on: enzyme activity; action: inhibitor; tested at: 0.5 µM; relative to: control
Target: Mitogen-activated protein kinase kinase kinase kinase 5 (MAP4K5, Homo sapiens, UniProt Q9Y4K4)
UniProt Q9Y4K4, sequence (whole entry, looked up): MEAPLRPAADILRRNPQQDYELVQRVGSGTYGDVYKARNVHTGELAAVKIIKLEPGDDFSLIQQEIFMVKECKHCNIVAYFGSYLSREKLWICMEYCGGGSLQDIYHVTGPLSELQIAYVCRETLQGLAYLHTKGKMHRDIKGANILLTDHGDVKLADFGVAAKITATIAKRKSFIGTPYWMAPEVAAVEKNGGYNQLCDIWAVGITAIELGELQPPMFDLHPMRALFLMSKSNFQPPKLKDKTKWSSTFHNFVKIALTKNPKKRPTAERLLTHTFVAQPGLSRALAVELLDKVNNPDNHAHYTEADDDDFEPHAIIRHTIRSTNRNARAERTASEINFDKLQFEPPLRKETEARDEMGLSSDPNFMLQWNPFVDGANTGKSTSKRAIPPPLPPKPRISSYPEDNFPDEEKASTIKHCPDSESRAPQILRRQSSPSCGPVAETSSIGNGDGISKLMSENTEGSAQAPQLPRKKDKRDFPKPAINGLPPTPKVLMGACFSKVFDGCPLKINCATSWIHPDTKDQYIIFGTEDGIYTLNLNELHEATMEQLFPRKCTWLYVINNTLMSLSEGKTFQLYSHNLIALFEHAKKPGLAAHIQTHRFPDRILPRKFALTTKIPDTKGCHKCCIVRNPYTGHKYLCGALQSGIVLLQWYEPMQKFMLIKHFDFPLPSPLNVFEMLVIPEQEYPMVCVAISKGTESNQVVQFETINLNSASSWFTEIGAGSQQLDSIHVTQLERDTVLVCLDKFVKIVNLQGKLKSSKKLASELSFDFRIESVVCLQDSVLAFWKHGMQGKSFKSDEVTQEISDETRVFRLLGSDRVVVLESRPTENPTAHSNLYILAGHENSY
| Compound | remaining activity [%] |
| --- | --- |
| O=c1cc(N2CCOCC2)oc2c(-c3ccccc3)cccc12 | 92.2 |
| O=C1Nc2ccc(Br)cc2/C1=C/c1cc2c([nH]1)CCCC2 | 17.7 |
| c1ccc2c(-c3ccncc3)c[nH]c2c1 | 106 |
| COc1cccc(-c2cc(=O)c3ccccc3o2)c1N | 91.1 |
| CN1CCN(c2ccc3nc(-c4c(N)c5c(F)cccc5[nH]c4=O)[nH]c3c2)CC1 | 3.26 |
| N#Cc1cnc2cnc(NCc3cccnc3)cc2c1Nc1ccc(F)c(Cl)c1 | 61.7 |
| CN(C)S(=O)(=O)c1ccc2c(c1)/C(=C/c1cc3c([nH]1)CCCC3)C(=O)N2 | 3.08 |
| O=Nc1c(-c2c(O)[nH]c3cc(Br)ccc23)[nH]c2ccccc12 | 36.5 |
| Cc1ccc(S(=O)(=O)/C=C/C#N)cc1 | 97.8 |
| O=C1Cc2c([nH]c3ccc(Br)cc23)-c2ccccc2N1 | 30.1 |
| Cc1cc(Nc2cc(N3CCN(C)CC3)nc(Sc3ccc(NC(=O)C4CC4)cc3)n2)[nH]n1 | 18.3 |
| COc1ccc2c(c1)c(C1=C(c3c[nH]c4ccccc34)C(=O)NC1=O)cn2CCCN(C)C | 27.7 |
| O=C1NC(=O)c2c1c1c3ccccc3[nH]c1n1cncc21 | 13.5 |
| Oc1cccc(-c2nc(N3CCOCC3)c3oc4ncccc4c3n2)c1 | 82.4 |
| O=C(c1cc2cc(O)ccc2[nH]1)c1cc2cc(O)ccc2[nH]1 | 28.7 |
| c1ccc(-c2n[nH]c3c2oc2ccccc23)cc1 | 36.6 |
| CCCCc1c(-c2ccc(OC)cc2)[nH]c2nccnc12 | 63.8 |
| O=C1NC(=O)c2c1c1c3ccccc3[nH]c1c1[nH]c3cc(Br)ccc3c21 | 42.3 |
| CCCNC(=O)Nc1ccc(Oc2ncnc3cc(OC)c(OC)cc23)cc1Cl | 54.6 |
| O=C1Nc2ccccc2/C1=C\c1c(Cl)[nH]c2ccccc12 | 95 |

Study 3
Structure (SMILES): Cc1cc2c(C(N)=O)c(N)n(-c3c(C)ccc(O)c3C)c2nc1C
| cell line | test | setting | inhibition |
| --- | --- | --- | --- |
| KLE | cell proliferation | 13.72 nM | -0.05% and -3.01% and -2.99% |
| NCI-H1568 | cell proliferation | 41.15 nM | 9.54% and 7.77% |
| U-251 MG | cell growth | 370.37 nM | 12.9% |
| U-251 MG | cell growth | 1111.11 nM | 52.3% |
| MKN-1 | cell proliferation | 10000 nM | 99.8% |
| MDA-MB-436 | cell proliferation | 4.57 nM | -3.99% and -1.14% and -3.13% |
| HuCCT-1 | cell proliferation | 4.57 nM | 2.79% and 3.17% and 5.69% |
| KLE | cell proliferation | 41.15 nM | -0.07% and 1.42% and -0.56% |
| HCC1806 | cell proliferation | 3333.33 nM | 99.2% |
| LN-229 | cell proliferation | 123.5 nM | -3.78% and -5.69% and -5.31% |
| HCC1569 | automated capillary immunoblot, refers to: CDK1 phospho-Thr14 | 37.04 nM | 45.7% |
| RKO | cell proliferation | 3333.33 nM | 98.6% |
| NCI-H1568 | cell proliferation | 10000 nM | 96.4% |
| HCC1569 | automated capillary immunoblot, refers to: CDK1 phospho-Thr14 | 12.35 nM | 39.7% |

Single results of other studies
| SMILES | target | test | setting | endpoint | result |
| --- | --- | --- | --- | --- | --- |
| C[C@@H](c1cccc(C#N)c1)n1cc(Cl)cc(C(N)=O)c1=N | Translocator protein (Tspo, Rattus norvegicus, UniProt P16257) | binding, radioligand binding | 10 µM | inhibition | 1.07% |
